Results gathered from unrelated publications.
Each line is one published result; not all experiments were run side by side. Numbers after ± are the reported error.
T1: DNA aptamer; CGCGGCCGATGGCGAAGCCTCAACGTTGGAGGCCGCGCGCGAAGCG
Sequence of UniProt P15145 (whole entry, looked up): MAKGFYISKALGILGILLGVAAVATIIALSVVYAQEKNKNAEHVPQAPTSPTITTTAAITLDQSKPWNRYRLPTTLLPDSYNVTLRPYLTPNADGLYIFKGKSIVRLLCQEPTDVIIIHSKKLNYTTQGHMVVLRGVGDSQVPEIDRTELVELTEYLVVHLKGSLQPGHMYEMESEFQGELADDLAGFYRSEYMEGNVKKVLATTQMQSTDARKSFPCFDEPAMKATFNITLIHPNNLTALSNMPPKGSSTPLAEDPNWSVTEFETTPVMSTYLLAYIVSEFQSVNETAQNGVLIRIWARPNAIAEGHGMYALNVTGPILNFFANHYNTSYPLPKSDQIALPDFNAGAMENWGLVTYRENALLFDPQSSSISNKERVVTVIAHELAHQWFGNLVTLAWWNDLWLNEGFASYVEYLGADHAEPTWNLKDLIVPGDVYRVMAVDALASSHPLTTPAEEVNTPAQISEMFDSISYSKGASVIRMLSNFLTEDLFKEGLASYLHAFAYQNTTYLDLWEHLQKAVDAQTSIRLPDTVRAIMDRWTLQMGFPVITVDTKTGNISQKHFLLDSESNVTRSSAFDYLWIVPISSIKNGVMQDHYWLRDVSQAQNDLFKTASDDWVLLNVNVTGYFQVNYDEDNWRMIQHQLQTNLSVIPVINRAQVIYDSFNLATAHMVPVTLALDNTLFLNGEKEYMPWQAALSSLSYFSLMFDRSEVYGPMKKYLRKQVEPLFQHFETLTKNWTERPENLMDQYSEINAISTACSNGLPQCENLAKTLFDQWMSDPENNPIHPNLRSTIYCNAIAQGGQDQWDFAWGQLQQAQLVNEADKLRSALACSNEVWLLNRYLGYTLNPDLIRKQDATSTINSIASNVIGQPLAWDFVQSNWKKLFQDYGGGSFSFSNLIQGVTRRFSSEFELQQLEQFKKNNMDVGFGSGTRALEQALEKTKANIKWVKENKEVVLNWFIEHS
Sequence of UniProt P11388 (whole entry, looked up): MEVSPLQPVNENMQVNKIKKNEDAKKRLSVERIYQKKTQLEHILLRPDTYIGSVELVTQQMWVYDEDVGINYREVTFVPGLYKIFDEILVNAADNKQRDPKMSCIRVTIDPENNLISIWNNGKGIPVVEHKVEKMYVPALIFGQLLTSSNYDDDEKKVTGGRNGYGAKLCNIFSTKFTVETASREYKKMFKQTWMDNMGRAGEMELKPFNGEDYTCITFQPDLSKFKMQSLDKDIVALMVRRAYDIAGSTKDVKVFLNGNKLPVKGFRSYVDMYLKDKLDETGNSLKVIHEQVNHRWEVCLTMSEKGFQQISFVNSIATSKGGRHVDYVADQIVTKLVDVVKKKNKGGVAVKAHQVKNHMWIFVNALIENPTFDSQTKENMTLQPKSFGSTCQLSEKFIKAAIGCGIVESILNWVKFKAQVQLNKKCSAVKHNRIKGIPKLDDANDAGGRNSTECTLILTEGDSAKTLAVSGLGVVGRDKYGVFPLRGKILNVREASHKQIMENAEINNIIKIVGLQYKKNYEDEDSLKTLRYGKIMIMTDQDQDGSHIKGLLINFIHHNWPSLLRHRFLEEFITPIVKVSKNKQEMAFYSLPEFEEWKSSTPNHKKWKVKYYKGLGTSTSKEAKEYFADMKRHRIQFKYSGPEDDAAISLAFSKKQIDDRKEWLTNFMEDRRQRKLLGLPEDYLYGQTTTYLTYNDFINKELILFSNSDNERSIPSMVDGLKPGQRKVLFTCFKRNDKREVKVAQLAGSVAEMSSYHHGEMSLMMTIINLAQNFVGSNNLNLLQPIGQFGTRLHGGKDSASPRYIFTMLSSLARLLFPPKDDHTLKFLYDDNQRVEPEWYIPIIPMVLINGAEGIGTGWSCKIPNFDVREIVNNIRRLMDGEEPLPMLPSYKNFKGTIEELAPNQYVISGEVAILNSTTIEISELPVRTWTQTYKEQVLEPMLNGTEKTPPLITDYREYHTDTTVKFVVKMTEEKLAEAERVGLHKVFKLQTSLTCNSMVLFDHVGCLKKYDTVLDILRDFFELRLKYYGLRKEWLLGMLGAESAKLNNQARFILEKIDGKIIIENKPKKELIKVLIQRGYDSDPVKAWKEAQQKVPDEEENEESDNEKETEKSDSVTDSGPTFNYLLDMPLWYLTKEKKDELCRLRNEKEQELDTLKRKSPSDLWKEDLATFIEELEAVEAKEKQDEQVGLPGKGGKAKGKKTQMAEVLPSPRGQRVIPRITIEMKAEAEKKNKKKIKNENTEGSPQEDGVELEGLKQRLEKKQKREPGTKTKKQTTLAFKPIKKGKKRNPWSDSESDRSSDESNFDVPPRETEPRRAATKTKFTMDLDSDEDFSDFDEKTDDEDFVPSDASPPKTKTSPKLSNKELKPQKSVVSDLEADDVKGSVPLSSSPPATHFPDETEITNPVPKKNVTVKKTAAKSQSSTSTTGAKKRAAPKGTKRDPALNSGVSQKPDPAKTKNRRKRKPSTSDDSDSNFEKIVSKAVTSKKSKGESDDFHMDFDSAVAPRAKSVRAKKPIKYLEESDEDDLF
Sequence of UniProt P0ABQ4 (whole entry, looked up): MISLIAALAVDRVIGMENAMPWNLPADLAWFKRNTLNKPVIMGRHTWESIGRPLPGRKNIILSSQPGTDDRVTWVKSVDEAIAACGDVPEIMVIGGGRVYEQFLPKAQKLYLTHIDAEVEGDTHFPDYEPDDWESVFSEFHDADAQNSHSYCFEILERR

| Structure (SMILES) | tested on | assay | test system | conditions | scale | quantity | value |
| --- | --- | --- | --- | --- | --- | --- | --- |
| [Mn+2] | uncharacterized protein (Bacteroides thetaiotaomicron, UniProt Q8A183) | phosphatase activity, activator, phosphate release | – | 5 mM, EDTA-treated enzyme, together with: substrate 4 mM | baseline: activity with Mg2+ | relative specific activity | 0.02 |
| COc1cc([C@@H]2c3cc4c(cc3[C@@H](O[C@@H]3O[C@@H]5CO[C@@H](C)O[C@H]5[C@H](O)[C@H]3O)[C@H]3COC(=O)[C@H]23)OCO4)cc(OC)c1O | TOP2A (Homo sapiens, UniProt P11388) | DNA cleavage | – | 31.25 µM, replicate 1 | – | linear DNA | 15.6% |
| CO[C@H]1O[C@H](CO)[C@@H](O)[C@H](O)[C@@H]1O[C@H]1O[C@H](CO)[C@@H](O)[C@H](O)[C@@H]1O[C@H]1O[C@H](CO)[C@@H](O)[C@H](O[C@H]2O[C@H](CO)[C@@H](O)[C@H](O)[C@@H]2O)[C@@H]1O | Alpha-1,2-mannosidase (BT_3858) (Bacteroides thetaiotaomicron, UniProt Q8A113) | alpha-1,3-mannosidase activity | – | concentration not given | – | enzyme activity | active |
| CO/N=C(\C(=O)N[C@@H]1C(=O)N2C(C(=O)O)=C(COC(C)=O)CS[C@H]12)c1csc(N)n1 | Pseudomonas aeruginosa | – | clinical isolate RKI-No_613/16 | – | – | MIC | > 16 µg/mL |
| N#CCC1CCN(c2nc(Nc3ccc(N4CCC(O)CC4)cc3)c3c(=O)[nH]ncc3n2)CC1 | – | Olink multiplex, refers to: CD163 | human, serum | 40 mg, day 15, unit not given | baseline: placebo | serum level change | -1.38 |
| Fc1ccccc1Cc1nc(-c2nc(C(F)(F)F)n[nH]2)cn2ccnc12 | – | – | healthy human subjects, both sexes | oral, 10 mg, fed | – | subjects with nervous system TEAEs | 15.4% |
| C(=C1c2ccccc2-c2c1ccc1ccccc21)c1cc2c3c(cccc3c1)-c1ccccc1-2 | Aminopeptidase N (ANPEP, Sus scrofa, UniProt P15145) | enzyme activity | – | 3 µM, 30 min preincubation, undiluted, unit not given | baseline: untreated | remaining activity | 0.562 ± 0.001 |
| COC(=O)Nc1c(N)nc(-c2nn(Cc3ccccc3F)c3ncc(F)cc23)nc1N | – | – | healthy male humans, plasma | 2.5 mg, phase I DDI study, alone | – | Cmax | 82.8 ng/mL |
| [Co+2] | uncharacterized protein (Bacteroides thetaiotaomicron, UniProt Q8A183) | phosphatase activity, activator, phosphate release | – | 5 mM, EDTA-treated enzyme, together with: substrate 20 mM | baseline: activity with Mg2+ | relative specific activity | 0.091 |
| C=C1[C@@H](O)[C@@H]2O[C@]3(CC[C@H](/C=C/[C@@H](C)[C@@H]4CC(C)=C[C@@]5(O[C@H](C[C@@](C)(O)C(=O)O)CC[C@H]5O)O4)O3)CC[C@H]2O[C@@H]1[C@@H](O)C[C@H](C)[C@H]1O[C@@]2(CCCCO2)CC[C@H]1C | T1, DNA aptamer | microscale thermophoresis | – | pH 7.5, 25 °C, NaCl 150 mM | – | Kd | 0.254 µM |
| OC[C@H]1O[C@@H](O[C@@H]2[C@@H](O)[C@H](O[C@@H]3[C@@H](O)[C@H](O[C@@H]4[C@@H](O)[C@H](O[C@H]5[C@H](O)[C@@H](CO)OC(O)[C@@H]5O)O[C@H](CO)[C@H]4O)O[C@H](CO)[C@H]3O)O[C@H](CO)[C@H]2O)[C@H](O)[C@@H](O)[C@@H]1O (stereo partly shown) | uncharacterized protein (Bacteroides thetaiotaomicron, UniProt A0A173VPY3) | ITC | – | pH 7.0, 25 °C | – | ΔH | -28 kcal/mol |
| COc1ccc(CC(=O)c2ccc(O)cc2O)cc1 | folA (Escherichia coli, UniProt P0ABQ4) | differential scanning fluorimetry | – | estimate from thermal shift | – | Kd | 182 ± 21.6 µM |
| O=C(c1ccccc1)C1CCNCC1 | Adenosylmethionine-8-amino-7-oxononanoate aminotransferase (Mycobacterium tuberculosis, UniProt P9WQ81) | thermal stability, differential scanning fluorimetry | – | 5 mM, holo enzyme | baseline: DMSO | ΔTm | 3.6 ± 0.2 °C |
